Measured values collected from several papers.
Lines come from different studies, so protocols differ. ± gives the spread as reported. In brackets after ≈: the same amount, converted by molar mass.
Organism: Escherichia coli

SMILES | test | system | conditions | how to read | measurement | result
CC[C@H](C)[C@H](NC(=O)[C@H](CCCCN)NC(=O)[C@H](CCCCN)NC(=O)[C@H](Cc1c[nH]c2ccccc12)NC(=O)[C@H](CC(N)=O)NC(=O)[C@@H](N)C(C)C)C(=O)N[C@@H](CC(C)C)C(=O)NCC(=O)N[C@@H](CCCCN)C(=O)N[C@H](C(=O)N[C@H](C(=O)N[C@@H](CCCCN)C(=O)N[C@H](C(=O)N[C@H](C(=O)N[C@@H](CCCCN)C(N)=O)C(C)C)C(C)C)[C@@H](C)CC)[C@@H](C)CC |  | ATCC 8937, RPMI medium | 24 h, 37 °C |  | LC99.9 | 1.9 to 3.7 µM
O=C(CSc1nc2ccccc2[nH]1)N/N=C/c1cc2c(s1)CCCC2 |  | TolC | 50 µM |  | growth inhibition | 73%
C[C@@](O)(C(F)F)[C@H](NC(=O)c1ccc(C#CC#CC2CC2)cc1)C(=O)NO | survival | NDM-1 producing, CD-1 mice, infection model | IV then IP, daily dose basis |  | ED50 | 7.2 mg/kg/day
CCCCCC(=O)NCC(=O)N[C@@H](CC(C)C)C(=O)N[C@@H](CC(C)C)C(=O)N[C@@H](CCCCN)C(=O)N[C@@H](CCCNC(=N)N)C(=O)N[C@H](C(=O)N[C@@H](CCCCN)C(=O)N[C@H](C(=O)N[C@@H](CC(C)C)C(=O)N[C@@H](CC(C)C)C(=O)NCCCC[C@H](NC(=O)[C@H](CC(C)C)NC(=O)[C@H](CC(C)C)NC(=O)[C@@H](NC(=O)[C@H](CCCCN)NC(=O)[C@@H](NC(=O)[C@H](CCCNC(=N)N)NC(=O)[C@H](CCCCN)NC(=O)[C@H](CC(C)C)NC(=O)[C@H](CC(C)C)NC(=O)CNC(=O)CCCCC)[C@@H](C)CC)[C@@H](C)O)C(N)=O)[C@@H](C)O)[C@@H](C)CC | checkerboard | ATCC 25922 | with: rifampicin |  | FIC index | 0.25
CC[C@H](C)[C@H](NC(=O)[C@H](CCCN)NC(=O)[C@H](CC(N)=O)NC(=O)[C@H](Cc1c[nH]c2ccccc12)NC(=O)[C@H](Cc1ccccc1)NC(=O)[C@H](CCCN)NC(=O)[C@H](CCCCNC(=N)N)NC(=O)[C@H](CC(C)C)NC(=O)[C@H](Cc1c[nH]c2ccccc12)NC(=O)[C@H](CCCN)NC(=O)[C@H](CCCCNC(=N)N)NC(=O)[C@H](CC(C)C)NC(=O)CNC(C)=O)C(=O)N[C@@H](CCCN)C(=O)N[C@@H](CCCCNC(=N)N)C(N)=O |  | ATCC 25922 | 1/2 x MIC, established biofilm |  | biofilm cells killed | > 50%
CC[C@H](C)[C@H](NC(=O)[C@H](CCCCN)NC(=O)[C@H](CCCCN)NC(=O)[C@H](CC(C)C)NC(=O)[C@H](CCCCN)NC(=O)[C@H](CCC(=O)O)NC(=O)[C@H](CCCCN)NC(=O)[C@@H](NC(=O)[C@H](CCCCN)NC(=O)[C@H](CC(N)=O)NC(=O)[C@H](CCCNC(=N)N)NC(=O)[C@H](Cc1ccccc1)NC(=O)[C@H](CCCCN)NC(=O)[C@H](CCCNC(=N)N)NC(=O)[C@H](CC(C)C)NC(=O)[C@H](CCCNC(=N)N)NC(=O)[C@H](CCCCN)NC(=O)[C@H](CCCNC(=N)N)NC(=O)[C@@H](N)CC(C)C)[C@@H](C)CC)C(=O)NCC(=O)N[C@@H](CCC(N)=O)C(=O)N[C@@H](CCCCN)C(=O)N[C@H](C(=O)N[C@@H](CCC(N)=O)C(=O)NCC(=O)N[C@@H](Cc1ccccc1)C(=O)N[C@H](C(=O)N1CCC[C@H]1C(=O)N[C@@H](CCCCN)C(=O)N[C@@H](CC(C)C)C(=O)O)C(C)C)[C@@H](C)CC | inhibition zone | Am. J16c |  |  | lethal concentration | 1.01 µM
CCCCCCCCCCCCCCCC(=O)N[C@@H](CCCCN)C(=O)N[C@@H](CCCCN)C(=O)N(CCCCN)CC(=O)N[C@@H](CCCCN)C(=O)N[C@@H](CCCCN)C(N)=O |  | K12 |  |  | MBC | 64 µg/mL (≈ 71.4 µM)
CC[C@H](C)[C@H](NC(=O)[C@H](CCCCN)NC(=O)[C@H](CCCCN)NC(=O)[C@H](CC(C)C)NC(=O)[C@H](CCCCN)NC(=O)[C@H](CCC(=O)O)NC(=O)[C@H](CCCCN)NC(=O)[C@@H](NC(=O)[C@H](CCCCN)NC(=O)[C@H](CC(N)=O)NC(=O)[C@H](CCCNC(=N)N)NC(=O)[C@H](Cc1ccccc1)NC(=O)[C@H](CCCCN)NC(=O)[C@H](CCCNC(=N)N)NC(=O)[C@H](CC(C)C)NC(=O)[C@H](CCCNC(=N)N)NC(=O)[C@H](CCCCN)NC(=O)[C@H](CCCNC(=N)N)NC(=O)[C@H](CC(C)C)NC(=O)CN)[C@@H](C)CC)C(=O)NCC(=O)N[C@@H](CCC(N)=O)C(=O)N[C@@H](CCCCN)C(=O)N[C@H](C(=O)N[C@@H](CCC(N)=O)C(=O)NCC(=O)N[C@@H](Cc1ccccc1)C(=O)N[C@H](C(=O)N1CCC[C@H]1C(=O)N[C@@H](CCCCN)C(=O)N[C@@H](CC(C)C)C(=O)N[C@@H](C)C(=O)N1CCC[C@H]1C(=O)N[C@@H](CCCNC(=N)N)C(=O)N[C@H](C(=O)N[C@@H](CC(=O)O)C(=O)N[C@@H](Cc1ccc(O)cc1)C(=O)O)[C@@H](C)O)C(C)C)[C@@H](C)CC | inhibition zone | Am. J23a |  |  | lethal concentration | 1.44 µM
CC[C@H](C)[C@H](NC(=O)[C@H](CO)NC(=O)[C@H](CO)NC(=O)[C@H](Cc1ccccc1)NC(=O)CN)C(=O)N[C@@H](Cc1ccccc1)C(=O)N[C@@H](CCCNC(=N)N)C(=O)NCC(=O)N[C@H](C(=O)N[C@@H](C)C(=O)N[C@@H](CCCCN)C(=O)N[C@@H](Cc1ccccc1)C(=O)N[C@@H](C)C(=O)N[C@@H](CO)C(=O)N[C@@H](CCCCN)C(=O)NCC(=O)N[C@@H](CC(C)C)C(=O)NCC(=O)N[C@@H](CCCCN)C(N)=O)C(C)C |  | ATCC 8739 | MIC |  | time to complete killing | 120 min
CC[C@H](C)[C@H](NC(=O)[C@H](Cc1c[nH]c2ccccc12)NC(=O)[C@@H](N)CCCNC(=N)N)C(=O)N[C@@H](CCCNC(=N)N)C(=O)N[C@@H](Cc1c[nH]c2ccccc12)C(=O)N[C@H](C(=O)N[C@@H](Cc1c[nH]c2ccccc12)C(=O)N[C@@H](CCCNC(=N)N)C(=O)N[C@@H](CCCCN)C(=O)N[C@@H](CCCCN)C(=O)N[C@@H](CC(C)C)C(=O)N[C@@H](CCCNC(=N)N)C(N)=O)C(C)C | checkerboard | ATCC 25922 | unit not given, with: 10-N-nonyl acridine orange | lower = stronger synergy | FICI | 0.375
CC(C)=CCC/C(C)=C/CNCCNC1C2CC3CC(C2)CC1(O)C3 (stereo not drawn) |  | K12 |  |  | IC50 | 118 ± 2.2 µM
CC[C@H](C)[C@H](NC(=O)[C@H](CCCNC(=N)N)NC(=O)[C@H](CCCCN)NC(=O)[C@H](CC(C)C)NC(=O)[C@H](CC(C)C)NC(=O)CN)C(=O)N[C@@H](CCCCN)C(=O)N[C@H](C(=O)N[C@@H](CC(C)C)C(=O)N[C@@H](CC(C)C)C(=O)NCCCC[C@H](NC(=O)[C@H](CC(C)C)NC(=O)[C@H](CC(C)C)NC(=O)[C@@H](NC(=O)[C@H](CCCCN)NC(=O)[C@@H](NC(=O)[C@H](CCCNC(=N)N)NC(=O)[C@H](CCCCN)NC(=O)[C@H](CC(C)C)NC(=O)[C@H](CC(C)C)NC(=O)CN)[C@@H](C)CC)[C@@H](C)O)C(=O)NCCCC[C@H](NC(=O)[C@H](CCCCNC(=O)[C@H](CC(C)C)NC(=O)[C@H](CC(C)C)NC(=O)[C@@H](NC(=O)[C@H](CCCCN)NC(=O)[C@@H](NC(=O)[C@H](CCCNC(=N)N)NC(=O)[C@H](CCCCN)NC(=O)[C@H](CC(C)C)NC(=O)[C@H](CC(C)C)NC(=O)CN)[C@@H](C)CC)[C@@H](C)O)NC(=O)[C@H](CC(C)C)NC(=O)[C@H](CC(C)C)NC(=O)[C@@H](NC(=O)[C@H](CCCCN)NC(=O)[C@@H](NC(=O)[C@H](CCCNC(=N)N)NC(=O)[C@H](CCCCN)NC(=O)[C@H](CC(C)C)NC(=O)[C@H](CC(C)C)NC(=O)CN)[C@@H](C)CC)[C@@H](C)O)C(N)=O)[C@@H](C)O | checkerboard | ATCC 25922 | with: gentamicin |  | FIC index | 0.312
CNC(=O)c1cc(C(=O)NC)cc(-c2ccc(O[C@H]3O[C@H](CO)[C@@H](O)[C@H](O)[C@@H]3O)c(C)c2)c1 | biofilm formation, inhibitor | uropathogenic UTI89 |  |  | IC50 | 0.12 µM
CC[C@H](C)[C@H](NC(=O)[C@H](CO)NC(=O)[C@H](CO)NC(=O)[C@H](Cc1ccccc1)NC(=O)CN)C(=O)N[C@@H](Cc1ccccc1)C(=O)N[C@@H](CCCNC(=N)N)C(=O)NCC(=O)N[C@H](C(=O)N[C@@H](C)C(=O)N[C@@H](CCCCN)C(=O)N[C@@H](Cc1ccccc1)C(=O)N[C@@H](C)C(=O)N[C@@H](CO)C(=O)N[C@@H](CCCCN)C(N)=O)C(C)C |  | ATCC 8739 | MIC |  | time to complete killing | ≤ 20 min
CC[C@H](C)[C@H](NC(=O)[C@H](CCCCN)NC(=O)[C@H](CCCCN)NC(=O)[C@H](CC(C)C)NC(=O)[C@H](CCCCN)NC(=O)[C@H](CCC(=O)O)NC(=O)[C@H](CCCCN)NC(=O)[C@@H](NC(=O)[C@H](CCCCN)NC(=O)[C@H](CC(N)=O)NC(=O)[C@H](CCCNC(=N)N)NC(=O)[C@H](Cc1ccccc1)NC(=O)[C@H](CCCCN)NC(=O)[C@H](CCCNC(=N)N)NC(=O)[C@H](CC(C)C)NC(=O)[C@H](CCCNC(=N)N)NC(=O)[C@H](CCCCN)NC(=O)[C@H](CCCNC(=N)N)NC(=O)[C@H](CC(C)C)NC(=O)[C@@H](N)CC(C)C)[C@@H](C)CC)C(=O)NCC(=O)N[C@@H](CCC(N)=O)C(=O)N[C@@H](CCCCN)C(=O)N[C@H](C(=O)N[C@@H](CCC(N)=O)C(=O)NCC(=O)N[C@@H](Cc1ccccc1)C(=O)N[C@H](C(=O)N1CCC[C@H]1C(=O)N[C@@H](CCCCN)C(=O)N[C@@H](CC(C)C)C(=O)N[C@H](C(=O)N1CCC[C@H]1C(=O)N[C@@H](CCCNC(=N)N)C(=O)N[C@H](C(=O)N[C@@H](CCC(=O)O)C(=O)N[C@@H](CO)C(=O)O)[C@@H](C)O)C(C)C)C(C)C)[C@@H](C)CC | inhibition zone | ATCC 25922 |  |  | lethal concentration | 2.07 µM

Some of these lines once more:
SMILES | test | system | conditions | how to read | measurement | result
O=C(CSc1nc2ccccc2[nH]1)N/N=C/c1cc2c(s1)CCCC2 |  | TolC | 50 µM |  | growth inhibition | 73%
